Experimental data of several laboratories.
Every numbered part comes from another study and shows a few of its results, in no order.

Series 1
Target: Histone acetyltransferase KAT6A, winged helix 2, GST fusion (KAT6A, Homo sapiens, UniProt Q92794, residues 85-181)
Method: protein binding microarray
Molecule type: double-stranded DNA, one strand shown
Medium: in vitro
Concentration: not given
Notes: 8-mer, flanks averaged, mean of 2 arrays, mostly near background
Relative to: not given
Direction: higher = stronger binding
Target sequence (chain): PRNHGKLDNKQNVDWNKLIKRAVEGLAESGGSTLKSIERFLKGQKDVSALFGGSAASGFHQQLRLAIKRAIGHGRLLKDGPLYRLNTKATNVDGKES
`GCGGAAAA` gave an E-score of 0.0177.
`AAAAAAAG` gave an E-score of 0.267.
For `GGAGCATA`, the E-score was 0.0997.
The E-score of `CAAAGGTG` is reported as -0.177.
`GAGGCTTA` gave an E-score of 0.033.
`AGAGCAAT` has an E-score of 0.139.
`AAAGTCCA` gave an E-score of -0.14.

Series 2
Target: Interferon regulatory factor 7, full length, phosphomimetic (IRF7, Homo sapiens, UniProt Q92985, residues 1-503, S101K/S471D/S472D/S475D/S476D/S477D/S483D/S484D/S487D)
Sequence of UniProt Q92985 (whole entry, unmodified, looked up): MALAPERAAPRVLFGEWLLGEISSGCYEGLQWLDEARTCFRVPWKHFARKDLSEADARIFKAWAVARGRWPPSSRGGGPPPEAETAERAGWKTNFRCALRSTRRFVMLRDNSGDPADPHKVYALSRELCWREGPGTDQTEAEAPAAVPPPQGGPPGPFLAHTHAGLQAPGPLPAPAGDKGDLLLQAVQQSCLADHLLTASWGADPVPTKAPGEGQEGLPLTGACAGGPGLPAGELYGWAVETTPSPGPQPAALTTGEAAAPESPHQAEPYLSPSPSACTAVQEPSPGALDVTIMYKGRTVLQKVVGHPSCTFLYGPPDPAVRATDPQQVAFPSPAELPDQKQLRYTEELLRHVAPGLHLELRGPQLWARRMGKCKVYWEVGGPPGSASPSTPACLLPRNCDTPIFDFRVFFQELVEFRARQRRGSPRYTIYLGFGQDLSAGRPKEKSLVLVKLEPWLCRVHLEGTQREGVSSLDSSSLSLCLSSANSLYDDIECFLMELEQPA
Method: protein-binding microarray
Molecule type: double-stranded DNA, one strand shown
Medium: in vitro
Concentration: 250 nM
Notes: 60-bp whole probe
Together with: salmon DNA 0.4 mg/ml
Relative to: random background probes
Direction: higher = stronger binding
`GCCTAGCACTATCCTATCAGTTTAATATCGTGCTAGGTCTTGATTCGCTTGACGCTGCTG` has a log fluorescence of 1.11 z-score.
For `GCCTAGCACGACGATTTCGGGACAGGAGACGTGCTAGTCTTGATTCGCTTGACGCTGCTG`, the log fluorescence was 0.23 z-score.
`GCCTAGCACTCCCCTCCGGGACCCGCCTCGTGCTAGGTCTTGATTCGCTTGACGCTGCTG` has a log fluorescence of 0.0213 z-score.

Series 3
Target: Prothrombin, mature alpha-thrombin (F2, Homo sapiens, UniProt P00734)
Method: aptamer microarray, sandwich
Molecule type: DNA with 2'F-ANA
Medium: in vitro
Concentration: 200 nM
Notes: whole 15-mer aptamer, many near background
Together with: Cy3 exosite-II aptamer, 400 nM
Direction: higher = stronger binding
Sequence: GGTTGGTGTGGTTGG
`2'F-ANA at 2 4 5 7 8 9 10 14` — result for “mean fluorescence intensity”: 65.1 a.u.
Under “mean fluorescence intensity”, `2'F-ANA at 2 4 5 7 8 10 13` is recorded as 91.3 a.u.
`2'F-ANA at 1 2 3 9 10 11 14 15` — result for “mean fluorescence intensity”: 53.5 a.u.
For `2'F-ANA at 1 3 4 5 10 12 13 14`, “mean fluorescence intensity” read 47.7 a.u.
`2'F-ANA at 1 2 5 7 9 13 15` — result for “mean fluorescence intensity”: 49.9 a.u.

Single results of other studies
With `PhoQ, residues 284 288 289 292 302 303 TLMATV` the fold induction was 1.28 (PhoP, residues 12 14 15 18 19 LHTVL (Escherichia coli, UniProt P23836); Sort-seq, measured: YFP reporter; E. coli; PhoQ-PhoP variant library, together with: 10 µM Mg2+; relative to: high Mg2+ state, higher = stronger signaling).

Excerpt of the above (series 1):
For `GGAGCATA`, the E-score was 0.0997.
`AAAGTCCA` gave an E-score of -0.14.
